Published values pooled from the literature.
Each numbered part is a random draw from the data of one study; scales do not carry over between parts. Substitutions count along the parent as printed.

Study 1 — technique: RNAcompete; form: RNA; sample: in vitro; concentration: 20 nM; setting: 7-mer, probes averaged, single round; relative to: mean of 7-mers; direction: higher = stronger binding
Target: PABPC1L2, full length, GST fusion (mouse, UniProt A0ABA7IW68)
Target sequence (chain): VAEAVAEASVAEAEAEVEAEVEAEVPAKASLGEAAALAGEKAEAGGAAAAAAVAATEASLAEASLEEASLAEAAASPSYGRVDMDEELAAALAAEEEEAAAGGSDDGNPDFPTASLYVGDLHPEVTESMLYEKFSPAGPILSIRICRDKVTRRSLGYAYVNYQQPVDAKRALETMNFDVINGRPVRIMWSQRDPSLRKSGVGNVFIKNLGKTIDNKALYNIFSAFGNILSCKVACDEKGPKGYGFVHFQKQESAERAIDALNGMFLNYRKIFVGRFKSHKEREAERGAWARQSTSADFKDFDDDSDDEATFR
Strand | 7-mer Z-score
CGGGUGC | -0.0192
ACCGUUA | -0.215
UUUUAGC | 0.000733
GCCGCGU | -0.3
AUCGUGC | -0.238
UUCUCUC | -0.351
GUUACAG | -0.112
GCUUGCC | -0.249

Study 2 — technique: RNA Bind-n-Seq; form: RNA; sample: in vitro; concentration: not given; relative to: input RNA pool; direction: higher = stronger binding
Target: RING finger protein unkempt homolog, zinc fingers 1-6, GST-SBP tag (UNK, Homo sapiens, UniProt Q9C0B0, residues 30-357)
Sequence of UniProt Q9C0B0 (30-357, looked up): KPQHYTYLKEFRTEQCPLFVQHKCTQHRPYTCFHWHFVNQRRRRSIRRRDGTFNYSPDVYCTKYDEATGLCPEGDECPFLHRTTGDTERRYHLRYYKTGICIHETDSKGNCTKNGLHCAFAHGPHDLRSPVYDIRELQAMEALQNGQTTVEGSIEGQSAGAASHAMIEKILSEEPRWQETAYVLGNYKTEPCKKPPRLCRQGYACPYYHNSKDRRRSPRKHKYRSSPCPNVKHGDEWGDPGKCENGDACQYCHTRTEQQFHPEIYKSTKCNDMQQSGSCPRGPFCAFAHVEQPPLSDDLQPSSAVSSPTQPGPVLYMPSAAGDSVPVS
Setting: RNA with constant flanks, human-mouse chimeric sites, ends assumed
Constant ends, left off below: GGGAGUUCUACAGUCCGACGAUC … CAACAGAGGAUUGAGCAUCA
Strand | bound/input enrichment
CUAGCAGUCCAGCAGCUAGAAGGAGCCUUGAGACAAACACUCCACACGCAGGGAGGGCGAUAACAUUGUACAUUGGUUUACAUUUUUUCCCCCUGUGGAUUUUUCUAGAGGUCAUAGUGC | 0.575 ratio
AAUUUCCUGUCAUACUUUUUAGACAUUCACAUCAGACUUACAGAGCACCUGGCCACAUUCUAGUUUUGAAUUAUUUCUCAGCUAUGGAUAUGAUCAAAUGAGAACACUGCUUAACUAAUG | 0.435 ratio
AGAAAGCAAAACUUGGAACGAUUUAAGAAAGGAGACGUAAGAUUCUUGAUUUGCACAGAUGUAGCUGCUAGAGGAAUUGAUAUCCAUGGUGUUCCUUAUGUGAUCAACGUCACCCUGCCU | 0.319 ratio
UCCCAAAUCCAGCAGCUAGAAGGAGCCUUGAGACAAACACUCCACACGCAGGGAGGGCGAUAACAUUGUACAUUGGUUUACAUUUUUUCCCCCUGUGUUUUCUAGGGGAGGUCAUAGUGC | 0.52 ratio
AAAGAACUACUGAGGCAAGGCAGCAAAUUUAGGAGAGACAUUUCAACACUAUUAAUAGAGUUAGGAUUCCAAAUUAAAAAGAAAACUAAGACAUUAUACAUCAACAAAGCCAAUGUGUGG | 9.22 ratio
GCCACCAGAUCCCAGAAACAUGACUCUUGCUGCCUACAAGGAGAAGAUGAAGGAGCUCCCGCUGGUGUCCUUGUUCUGCUCCUGCUUCCUGGCCGAUCCCCUGAAUAAGUCGUCCUACAA | 0.14 ratio
CUGGCCUGGCCCUCCCCAGGGGCCUCCUUUCGUAUAGUCACUGCUUCUGCAUCAGAUACUUUCAGCUCCAAGUCCUGACUGGGUGGGGCACCCAUUUGAGGCAGGGUGUUUUGGUACCCU | 0.407 ratio
GCCACCAGAUCCCAGAAACAUGACCCUUGCAGCCUAUAAAGAGAAGAUGAAGGAGCUCCCGCUGGUGUCCUUGUUCUGCUCCUGCUUCCUGGCCGAUCCCCUGAAUAAAUCAUCCUACAA | 0.347 ratio

Study 3 — technique: RNA Bind-n-Seq; form: RNA; sample: in vitro; concentration: 365 nM; relative to: no-protein control; direction: higher = stronger binding
Target: RNA binding protein fox-1 homolog 2, RRM domain, GST-SBP tag (RBFOX2, Homo sapiens, UniProt O43251-10, residues 100-194)
Setting: natural RNA segment, single round, ends assumed
Constant ends, left off below: GGGAGUUCUACAGUCCGACGAUC … UGGAAUUCUCGGGUGCCAA
Strand | RBNS enrichment (R)
AGUACAAAGACACGAUUACAUAACCAGGUUCAAGGGGGACUUCUGCUUAUCAGUGCUAGGGAUGGGACCCAGGACCUCACCCACGCCAGGCUGAGCUAUGUCCCCAACCC | 0.597
AUGUUACGUCCUCCCCCCACCCCCUUCUUUCAGUGGUAUGCAACCACUGCAAUCACUGUGCAUAUGUCUUUUCUUAGCAAAAGGAUUUUAAAACUUGAGCCCUGGACCUU | 0.791
CAUAAUUUAAUACAGAUUGAUGUUAAUACUUGUGUAUUUACAUAACCGUUUCCUUCUUGUCACUGAAAUAUAUGGACCUUAAUUUGUAUCCUGACUGACUCAACCCAGCA | 1.64
UUUUACGGAUAUCUUGCUUCUGUUCCCCAUGGAGCUCCGAAUUCUUGCGUGUGUGUAGAUGAGGGGCGGGGGACGGGCGCCAGGCAUUGUCCAGACCUGGUCGGGGCCCA | 0.384
AGAUUGUCGGGACUAUGACCUUUUUCUCCAGUAUGCUACCUGAUUUGUUUGGCUGGCCACUAGGUGGCAGCAUUGGUUCUACUUCUCUGCUUUUUAAGAGAAAUUUCAGG | 2.15
CCCCAUGGAGAAUUUGACAUACCCUGGACUCCUGUGUGCCUCCUGCCAUCCCUGCACACAGCCUGGGGAGAAGCCUGUGCCUCCCCGUGUGGAGAGAAGGCAACCCCAGA | 0.42
AAAUCAAGUCCCAUGCUCCAAUCUCACCCCUGUCCAGGAUAGGAGCAAACUCAACCAAGAACUGCUCAUUCAGACUCGUGAAACGACCCAGAGAGGGCUCAGAAACGGCC | 0.508
AAGAGAGCCAAAUUAGAGGCUCAUACUUUAGCUUGUGAAGAAGAUAAUGAAUUUUUUAAAGGGAACUUUCUAUGCAAUGUUCAGGAUAAAUGCAUACUGCUGGCCAAUCA | 1.87

Mixed results
Parent: viral docking peptide; KKAKRRLFTISDS; partner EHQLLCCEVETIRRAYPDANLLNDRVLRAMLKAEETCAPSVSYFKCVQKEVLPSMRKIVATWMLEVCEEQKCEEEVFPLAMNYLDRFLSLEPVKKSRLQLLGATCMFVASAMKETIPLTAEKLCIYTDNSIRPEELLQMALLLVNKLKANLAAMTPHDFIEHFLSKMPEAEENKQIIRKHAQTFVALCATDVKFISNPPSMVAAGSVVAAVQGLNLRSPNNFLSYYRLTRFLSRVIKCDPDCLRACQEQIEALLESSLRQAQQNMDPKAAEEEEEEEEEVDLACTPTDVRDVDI
Substitution | target | test | test system | conditions | scale | measurement | result
K2A | CCND1, cyclin fold, Cln2 fusion (human) | yeast growth competition, sequencing | yeast | weak parent motif | relative to: not given, higher = stronger binding | normalised enrichment score | 0.373

For quick reference, copied from above (study 2):
Strand | bound/input enrichment
CUAGCAGUCCAGCAGCUAGAAGGAGCCUUGAGACAAACACUCCACACGCAGGGAGGGCGAUAACAUUGUACAUUGGUUUACAUUUUUUCCCCCUGUGGAUUUUUCUAGAGGUCAUAGUGC | 0.575 ratio
AGAAAGCAAAACUUGGAACGAUUUAAGAAAGGAGACGUAAGAUUCUUGAUUUGCACAGAUGUAGCUGCUAGAGGAAUUGAUAUCCAUGGUGUUCCUUAUGUGAUCAACGUCACCCUGCCU | 0.319 ratio
AAUUUCCUGUCAUACUUUUUAGACAUUCACAUCAGACUUACAGAGCACCUGGCCACAUUCUAGUUUUGAAUUAUUUCUCAGCUAUGGAUAUGAUCAAAUGAGAACACUGCUUAACUAAUG | 0.435 ratio
